Measurements of several laboratories.
Numbered parts are unrelated; each lists some results of a single study. Substitutions count along the parent as printed.
UniProt O23661, sequence (whole entry, looked up): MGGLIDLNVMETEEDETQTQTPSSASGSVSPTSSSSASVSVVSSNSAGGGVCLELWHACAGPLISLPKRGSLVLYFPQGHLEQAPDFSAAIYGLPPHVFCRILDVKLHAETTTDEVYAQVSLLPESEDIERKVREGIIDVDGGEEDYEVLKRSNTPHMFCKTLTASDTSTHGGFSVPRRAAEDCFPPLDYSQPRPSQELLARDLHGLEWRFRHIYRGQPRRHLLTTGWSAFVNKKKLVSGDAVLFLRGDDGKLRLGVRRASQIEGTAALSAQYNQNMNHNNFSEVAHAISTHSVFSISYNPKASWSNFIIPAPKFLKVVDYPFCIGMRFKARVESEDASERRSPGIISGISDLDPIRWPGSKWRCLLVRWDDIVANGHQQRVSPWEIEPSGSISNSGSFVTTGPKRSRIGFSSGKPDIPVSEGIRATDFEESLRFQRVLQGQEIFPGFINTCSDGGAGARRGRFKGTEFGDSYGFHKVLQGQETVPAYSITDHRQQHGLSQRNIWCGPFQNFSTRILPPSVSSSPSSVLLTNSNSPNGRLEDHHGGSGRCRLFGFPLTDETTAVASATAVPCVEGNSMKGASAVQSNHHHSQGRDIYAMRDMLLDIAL
UniProt Q94JM3, sequence (whole entry, looked up): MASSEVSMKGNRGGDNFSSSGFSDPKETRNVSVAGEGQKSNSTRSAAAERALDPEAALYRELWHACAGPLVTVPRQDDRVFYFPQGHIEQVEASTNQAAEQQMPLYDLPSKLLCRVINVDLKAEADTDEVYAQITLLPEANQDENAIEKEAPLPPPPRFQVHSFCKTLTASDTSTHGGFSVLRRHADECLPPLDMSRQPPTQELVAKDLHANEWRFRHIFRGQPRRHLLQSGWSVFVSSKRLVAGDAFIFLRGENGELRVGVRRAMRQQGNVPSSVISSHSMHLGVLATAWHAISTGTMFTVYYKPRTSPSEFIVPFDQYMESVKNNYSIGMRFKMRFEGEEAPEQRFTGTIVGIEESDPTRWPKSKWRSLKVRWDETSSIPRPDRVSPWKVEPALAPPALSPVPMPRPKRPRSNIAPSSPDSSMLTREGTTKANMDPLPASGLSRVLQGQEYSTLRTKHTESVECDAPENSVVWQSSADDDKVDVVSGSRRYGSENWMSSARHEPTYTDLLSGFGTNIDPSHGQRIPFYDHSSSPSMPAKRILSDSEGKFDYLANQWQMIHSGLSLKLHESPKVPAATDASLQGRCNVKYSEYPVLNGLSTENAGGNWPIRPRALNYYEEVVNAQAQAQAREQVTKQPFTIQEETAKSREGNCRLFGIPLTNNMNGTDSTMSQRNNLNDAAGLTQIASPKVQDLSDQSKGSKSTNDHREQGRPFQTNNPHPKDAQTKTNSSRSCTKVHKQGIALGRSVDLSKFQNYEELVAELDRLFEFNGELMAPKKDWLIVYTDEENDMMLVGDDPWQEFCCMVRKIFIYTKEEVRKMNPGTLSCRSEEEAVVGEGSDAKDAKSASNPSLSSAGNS
UniProt Q9FKM7, sequence (whole entry, looked up): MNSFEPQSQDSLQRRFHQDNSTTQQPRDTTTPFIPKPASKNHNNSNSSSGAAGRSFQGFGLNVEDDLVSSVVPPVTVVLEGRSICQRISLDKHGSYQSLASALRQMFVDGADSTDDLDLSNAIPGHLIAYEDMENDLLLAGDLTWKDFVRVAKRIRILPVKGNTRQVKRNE
UniProt P93024, sequence (whole entry, looked up): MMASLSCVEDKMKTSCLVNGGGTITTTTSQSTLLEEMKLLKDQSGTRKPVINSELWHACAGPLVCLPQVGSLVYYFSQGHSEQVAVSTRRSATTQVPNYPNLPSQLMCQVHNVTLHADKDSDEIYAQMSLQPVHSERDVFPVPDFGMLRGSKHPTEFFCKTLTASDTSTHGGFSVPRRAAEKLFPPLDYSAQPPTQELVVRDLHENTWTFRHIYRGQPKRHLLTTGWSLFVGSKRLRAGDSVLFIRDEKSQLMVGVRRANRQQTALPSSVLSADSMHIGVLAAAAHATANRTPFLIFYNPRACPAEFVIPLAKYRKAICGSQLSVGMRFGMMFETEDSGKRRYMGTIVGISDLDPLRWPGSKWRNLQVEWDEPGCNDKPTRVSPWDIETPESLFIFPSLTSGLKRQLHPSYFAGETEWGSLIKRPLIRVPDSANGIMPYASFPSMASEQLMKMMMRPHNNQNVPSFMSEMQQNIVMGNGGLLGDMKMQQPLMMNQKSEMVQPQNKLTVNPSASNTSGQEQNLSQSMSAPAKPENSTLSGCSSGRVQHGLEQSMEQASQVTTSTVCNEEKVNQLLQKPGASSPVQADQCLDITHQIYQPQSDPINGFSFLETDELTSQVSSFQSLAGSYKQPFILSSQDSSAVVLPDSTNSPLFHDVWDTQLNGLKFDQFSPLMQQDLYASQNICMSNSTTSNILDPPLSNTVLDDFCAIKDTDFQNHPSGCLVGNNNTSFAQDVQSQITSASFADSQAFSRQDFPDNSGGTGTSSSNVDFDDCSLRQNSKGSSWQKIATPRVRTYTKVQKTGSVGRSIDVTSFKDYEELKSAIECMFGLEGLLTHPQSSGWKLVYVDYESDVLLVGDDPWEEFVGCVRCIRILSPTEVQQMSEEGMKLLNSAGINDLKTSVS

Sample 1
Target: CCNB1, cyclin fold, Cln2 fusion (human)
Method: yeast growth competition, sequencing
Matrix: yeast
Notes: strong parent motif
Reference: not given
Reading: higher = stronger binding
Starting sequence: viral docking peptide; KGVKRKLFAEDSS; partner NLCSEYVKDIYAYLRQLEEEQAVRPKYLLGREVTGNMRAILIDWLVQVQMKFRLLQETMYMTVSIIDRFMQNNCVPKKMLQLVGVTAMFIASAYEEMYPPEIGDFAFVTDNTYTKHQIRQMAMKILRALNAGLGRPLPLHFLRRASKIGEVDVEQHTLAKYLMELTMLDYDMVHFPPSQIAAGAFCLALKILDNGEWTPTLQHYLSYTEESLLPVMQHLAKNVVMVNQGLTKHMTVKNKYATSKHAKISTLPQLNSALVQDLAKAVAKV
Change | normalised enrichment score
D11E | 2.85
K4I | 4.25
D11Q | 1.05
K6L | 0.334
K6H | 0.35
K6C | 2.45
A9G | 1.81
K4H | 1
E10L | 0.846
K4R | 4.33
R5F | 0.323
A9Y | 2.99
K4T | 1.85
F8I | 0.0961
E10V | 0.831
G2R | 1.78

Sample 2
Target: UBE2D3 UBC core domain (UniProt P61077)
Method: yeast two-hybrid
Matrix: yeast
Notes: mostly zero background
Reference: not given
Reading: higher = stronger interaction
B1: ZNF598 RING domain (UniProt Q86UK7); chain AAAPERGGGSCVLCCGDLEATALGRCDHPVCYRCSTKMRVLCEQRYCAVCREELRQVVFGK
B2: CUL9 RING domain (UniProt Q8IWT3); chain AQAVPVRPDHCPVCVSPLGCDDDLPSLCCMHYCCKSCWNEYLTTRIEQNLVLNCTCPIADCPAQPTGAFIR
Residues (chain): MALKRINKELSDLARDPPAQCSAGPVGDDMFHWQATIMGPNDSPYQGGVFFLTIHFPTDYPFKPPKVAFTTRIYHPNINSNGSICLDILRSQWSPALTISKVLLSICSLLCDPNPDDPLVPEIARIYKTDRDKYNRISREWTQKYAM
Sequence | lacZ reporter activity
FPEHFVKSISCQICEHILADPVETNCKHVFCRVCILRCLKVMGSYCPSCRYPCFPTDLES (RAG1 RING domain (UniProt P15918)) | 0
B1 (ZNF598 RING domain) | 0
B2 (CUL9 RING domain) | 0

Sample 3
Target: Hepatocyte nuclear factor 3-alpha (Foxa1, Mus musculus, UniProt P35582, residues 1-468, full length assumed)
Method: EMSA with sequencing
Molecule type: double-stranded DNA, one strand shown
Matrix: in vitro
Tested at: 10 and 20 nM
Notes: whole designed probe, mean of two concentrations, ends assumed
Reference: negative control set to 0
Reading: higher = stronger binding
Residues (chain): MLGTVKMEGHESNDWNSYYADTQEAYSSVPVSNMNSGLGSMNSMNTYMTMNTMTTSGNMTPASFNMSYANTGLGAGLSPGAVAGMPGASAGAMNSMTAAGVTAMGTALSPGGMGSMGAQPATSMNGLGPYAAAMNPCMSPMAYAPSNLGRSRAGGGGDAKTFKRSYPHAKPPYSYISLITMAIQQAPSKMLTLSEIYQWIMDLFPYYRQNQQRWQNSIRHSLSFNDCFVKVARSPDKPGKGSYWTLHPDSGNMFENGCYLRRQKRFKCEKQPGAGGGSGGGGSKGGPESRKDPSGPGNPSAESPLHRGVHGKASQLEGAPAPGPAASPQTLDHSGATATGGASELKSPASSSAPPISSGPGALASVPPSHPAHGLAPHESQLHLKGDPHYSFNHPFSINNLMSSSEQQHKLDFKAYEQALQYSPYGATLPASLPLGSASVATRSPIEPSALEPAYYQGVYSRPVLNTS
Oligonucleotide | normalised bound fraction [ratio]
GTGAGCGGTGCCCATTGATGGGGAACTGCTGCTTATTCATGAATTTTCAAATGGAAATATCTCTCCCATTATTATCCCCTTCTTGTGAGTCAGGCCCCATCTTGCAAATTTGCAGCTGAGTAAATATACGGAACATTAGCAGCAATTAGATAATTGGTGCCCCGGATCAGCCCACCCACAGCTGTGAATGAATATGGGCTGCATGAGTGTCACCTGGTGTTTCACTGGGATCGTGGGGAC | 0.339
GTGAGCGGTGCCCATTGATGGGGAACATCTTCCCCCTCTTCCTTGCCCCACCAGCTCACCTTCCCGGGTTATTTGCAGATAGGAAAATAAATAAAGCCGGCATTCGTTAACCCTCTTCTGGCGCAAACTGCTGTTTGCTCTGGATGAATTTCGTCAGCTTGGCGACGCCAGGCTCCGGGAGAGCAAAGCACCGTGTCAGGGCCATGATCCGGGGTGGCCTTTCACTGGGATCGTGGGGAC | 0.358
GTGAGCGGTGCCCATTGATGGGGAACAGTCACTCATTCATTACATAAAGTCTTTATCTTCGTGCATATCCTGGAACAATACTCTTAAATAAATACTCTCGGAGGCATTTTACTCCATGGCTATTTACTTTGCATTTCCATGATCTCAATGGAACACAGAAAGGGAGGAGGTAGAAGGCTTGGCAAACAATCATTTGCCACCATCTACGCACAAGGGGACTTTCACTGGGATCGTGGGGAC | 0.416
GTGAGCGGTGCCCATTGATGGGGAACTGGTAGAATGTGAAACTTTTAATACAGCCACTTGAATTGTCTACATATTCTTTTTAAGGGATATGAACCTTAGTTACACATTTTTTCTTCTGTATGTTTACATAGACTCCATCAGAAAGGTTTCAGCCAAGTAGCCTCTTTCCAGCTTCCAATGCCACATATTTGCAGAATGAAGAAAACTCAACTGGAGAAGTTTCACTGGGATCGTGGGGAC | 0.403
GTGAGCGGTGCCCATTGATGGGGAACCAGGCAGTTGGAAAGTTCCTATATGATGTGGGGCTGGGACTGGAGAAAGTGACATGTCATCATTAGGTTAGCTTTTTTGACATTTGTGTTTGCTTGTTTACTTTTTAATGTTGTTAACACATTTTTTATTGATCTGATAAAAACAGCAATTATCTTTAAAAGGAATGATTAGTTTCTTTTGTCTTTTGATTTGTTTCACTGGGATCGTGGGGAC | 0.431

Sample 4
Target: HLA class I histocompatibility antigen, A alpha chain, allele A*80:01 (Homo sapiens, UniProt P04439)
Effect on: peptide-MHC binding
Molecule type: peptide
Tested at: concentration not given
Sequence | binding
FPIPTEVVA | inactive
FRYKSRCYV | inactive
DELWRGLLA | inactive

Sample 5
Sequence: B3 (IAA32)
Method: two-hybrid
Reading: higher = firmer interaction
B3: IAA32 (Arabidopsis thaliana, UniProt Q8RYC6); chain MDPNTPADFFKGSSKFHTYYSQTKKGGGVIDLGLSLRTIQHETYLPPARMIGLDGYGELIDWSQPSYNSITQLKSEDTGHQRLAQGYYNNEGESRGKYAYVKVNLDGLVVGRKVCLVDQGAYATLALQLNDMFGMQTVSGLRLFQTESEFSLVYRDREGIWRNVGDVPWKEFVESVDRMRIARRNDALLPF
partner | how to read | positive tests
IAA34 (Arabidopsis thaliana, UniProt Q9C5X0) | reference: out of 4 tests | 3
ETT (Arabidopsis thaliana, UniProt O23661) | reference: out of 4 tests | 1
ARF2 727-859 (Arabidopsis thaliana, UniProt Q94JM3) | reference: out of 3 tests | 2
ARF5 788-902 (Arabidopsis thaliana, UniProt P93024) | reference: out of 4 tests | 4
IAA33 (Arabidopsis thaliana, UniProt Q9FKM7) | reference: out of 4 tests | 1
